Measurements from different studies.
Every numbered part comes from another study and shows a few of its results, in no order.

Series 1
Target: RNA binding protein fox-1 homolog 2, RRM domain, GST-SBP tag (RBFOX2, Homo sapiens, UniProt O43251-10, residues 100-194)
Technique: RNA Bind-n-Seq
Form: RNA
Medium: in vitro
Tested at: 365 nM
Setting: natural RNA segment, single round, ends assumed
Baseline: no-protein control
Direction: higher = stronger binding
Quantity: RBNS enrichment (R)
Constant ends, left off below: GGGAGUUCUACAGUCCGACGAUC … UGGAAUUCUCGGGUGCCAA
CCCCCAGAUAUCCUCACCUCAGGGCCUCCUUUUUUUGCAAACUCCUCCCCUCCCCCGAGGGCAGACCCAGCCAGCUGCUAAGCUCUGCAGCUCCCCAGUGGACAGUGUCA: 0.457
AGCAGGGACGCCUUGUCCCCAAGACUUCUCCCCAACUUGGCUCCAUUCCUGCAUUCUGCCAUAGGAAUCACAACUUCCCACAUCAGGCCAUGCUUGCCUAAGACCUCGUU: 0.807
ACUAGCAGGUUCUUUUUAAAAGAACAUUUGGUUUUUUUUAAACAUGUGAUUUUUAACACAUAUAUUUCUUCCAUAUUCAGAUUGGCAUUCAUAUAUGUAUCCAUUCUGUA: 1.12
UGCUGUCACUUCGUUGGUCCCUUGAAGAUCUCUGUGACCGGAUCUGCCUCCGUGGCUGGGAGACAUUCAUAACACAGAGGACUCAGUUCUGUUGGAAAGCCAGCAUGUGA: 3.83
GGUUACUCUUAGAAUCGCAUGCUGUAGAAAUGCUCUAAAGUGCAUAUAGGACUCAGUCCUUAGAUGUUCUUUUUAUUUUAAGAAAUAACCUCUUCAAGUUGUAACCGUGG: 1.29
GCCCCUCAUUGUUACUGCCUUGUGAGAUAAAAACUGAUUAAACCUUUGUGGCUGUGGUUGGCUGACAUGGGGUCUGUGUUUCACUAACUAACUAACUAACUGCAGGUGGU: 0.737
UUGGAAUUUACCAGUUAAUUACUCAGCAGAAUGGUGAUCACUCCAGGUAGUUUGGGGCAAAAAUCCGAGGUGCUUGGGAGUUUUGAAUGUUAAGAAUUGACCAUCUGCUU: 0.987
CAAGCUGAGCUGCUAGGGAAUCAAGGUGAACUAGACCCGUCCUCAGGCCUCUGGCACCUGUUUCUAGCUCUCACUUCUACGGCAUGCUGUCCAAGGAACCAAAGGAGGCU: 0.439
GGUGCUCACAAUUGUCUCUCACAGUGUAUGUGAUUUUUUUAAGGAAAAAAAAAAAUCCCUAUUUAAGAUUCUGAAGGUGCUACCAUUAUUUUGCCACAGACUUUGAAGAA: 0.646
CUUUUGAACAAUUUUAAUUUUUUGCCUCAUAAAUUUUGUGAAUGCUAUUCAUUAUAGGGCUUGUAUAUAUAAUCUAAAAUGUCAGCAAGGCAUCGGAGAUGGGUUAACAU: 1.31
CCUGUGGCCCUAUGGUGUGAUGCUGUGUCUGUAUCUAUGUGUCUAUACAAAGGUACUUGCCCUUUCCCUUUGUAAACUACAUUUGACAUGGAUUAAAACAGUAUAAACAA: 0.466
GGCUCUGGGCUGGGACAUGGCUUAGAGUGACUUUCUGUCUUAGAAAUCAUGGUAUAUCCUCAGGAGAAUGUUCCGUGUCUCGCAACAACUAAUUAUAUUGCAAAUUAUUA: 0.568

Series 2
Target: Ras GTPase-activating protein-binding protein 1, C-terminal RGG region (G3BP1, Homo sapiens, UniProt Q13283)
Chain of UniProt Q13283 (whole entry, looked up): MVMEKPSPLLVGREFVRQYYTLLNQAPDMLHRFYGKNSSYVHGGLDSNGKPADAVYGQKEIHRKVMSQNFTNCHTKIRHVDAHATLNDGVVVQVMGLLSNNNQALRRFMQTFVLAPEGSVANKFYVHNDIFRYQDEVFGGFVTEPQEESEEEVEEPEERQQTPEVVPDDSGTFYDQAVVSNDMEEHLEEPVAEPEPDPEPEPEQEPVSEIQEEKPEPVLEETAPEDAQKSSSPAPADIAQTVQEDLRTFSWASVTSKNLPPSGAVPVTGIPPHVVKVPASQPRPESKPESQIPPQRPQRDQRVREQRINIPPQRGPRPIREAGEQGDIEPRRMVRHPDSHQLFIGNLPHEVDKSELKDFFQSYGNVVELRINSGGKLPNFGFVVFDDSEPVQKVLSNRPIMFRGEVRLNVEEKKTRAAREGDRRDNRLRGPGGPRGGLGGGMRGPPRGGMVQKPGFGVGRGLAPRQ
Technique: RNA Bind-n-Seq
Form: RNA
Medium: in vitro
Tested at: 1 µM
Setting: whole 134-nt RNA, ends assumed
Added: 150 mM KCl
Baseline: input library
Direction: higher = stronger binding
Quantity: log2 enrichment
Constant ends, left off below: GGGAGUUCUACAGUCCGACGAUC … UGGAAUUCUCGGGUGUCAAGG
CUCAAGUCCUGUGCUACACAUCGUAUGUACCGAAUCGGUUGGGGUUGGUUGGGAAAGUAUUAUGUUACGCCGUUCGGAUCUGCACUUCCA: -0.606
CCUCAAGUCCUGUGCUACACAUCGUAUGUACCGAAUCGGGAAGGAAGGGAAGGAAAGUAUUAUGUUACGCCGUUCGGAUCUGCACUUCCA: -1.37
ACCAUGCAGGUGGGCAUCUUUGGUAAGUGGGGCAAGGGGGGGAUAGGGAGGGGGGUAACACUUUGGGAACAGGUGGUCCCAGGUCGUUUC: -1.17
CCUGUGCUACACAUCGUAUGUACCGAAUCGGCCCCCCCGGGCCCCCCCGGCCCCCCCGGGGAAAGUAUUAUGUUACGCCGUUCGGAUCUG: -1.57
AGUCCUGUGCUACACAUCGUAUGUACCGAAUCGGGGAAAAAGGGGUGGGGUUUGGGGAAAGUAUUAUGUUACGCCGUUCGGAUCUGCACU: 0.937
AAGUCCUGUGCUACACAUCGUAUGUACCGAAUCGGGGUGGGGUGGGGUUUUUGGGGAAAGUAUUAUGUUACGCCGUUCGGAUCUGCACUU: 1.4
UGUGCUACACAUCGUAUGUACCGAAUCGGGGUUUUUUUGGGGAAAAAGGGGAAAAAAAGGGGAAAGUAUUAUGUUACGCCGUUCGGAUCU: 0.0513
CACAGACAACACGCACCCACACAGACGCAGAGGGAAGGGGUUGGGAUGGGGACAGGGUGCACAGCAGGGCGGGGUAGGACCCCAGCCCCU: -0.0804
CCUGUGCUACACAUCGUAUGUACCGAAUCGGGUUUUUUUGGGAAAAAAAGGGUUUUUGGGAAAGUAUUAUGUUACGCCGUUCGGAUCUGC: -1.97
UUUCUGCAGCAUUAGAGAAGGCCCAAGAAGAAGCCCGUCAGCAGCAAGAAACAUUAGCCAUUCAAGUAAGCAAUGGAUGAUGAAUUAGAG: -2.06
UGGGAGGUGGAUUUUGUUUAUUUUUUUAGCUCAUUUCCAGGGGUGGGAAAUUUUUUUUAAUAUGUGUCAUGAAUAAAGUUGUUUUUGAAA: 2.63
CACAGACAACACGCACCCACACAGACACAGAAAGAAGGGGUUGGGAUGGGGACAGGGUGCACAGCAGGGCGGGGUAGGACCCCAGCCCCU: -0.348
CUCAAGUCCUGUGCUACACAUCGUAUGUACCGAAUCGGGAAGGGGAAGGAAGGGAAAGUAUUAUGUUACGCCGUUCGGAUCUGCACUUCC: -0.991
UCCUGUGCUACACAUCGUAUGUACCGAAUCGGGCCCCCCGGGCCCCCCGGCCCCCCGGGGAAAGUAUUAUGUUACGCCGUUCGGAUCUGC: -1.02

Series 3
Target: Histone acetyltransferase KAT6A, winged helix 2, GST fusion (KAT6A, Homo sapiens, UniProt Q92794, residues 85-181)
Technique: protein binding microarray
Form: double-stranded DNA, one strand shown
Medium: in vitro
Tested at: not given
Setting: 8-mer, flanks averaged, mean of 2 arrays, mostly near background
Baseline: not given
Direction: higher = stronger binding
Quantity: E-score
Residues (chain): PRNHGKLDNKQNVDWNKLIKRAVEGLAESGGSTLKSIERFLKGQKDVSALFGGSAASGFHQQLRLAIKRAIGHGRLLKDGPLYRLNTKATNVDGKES
GATATGGC: -0.173
CCTGGGAC: 0.0246
GTGCCGTA: 0.09
AGTTACCC: -0.0327
GTACAAGA: -0.196
ATTGGATC: 0.0833
CAGCAGCG: 0.133
ACCAAATG: -0.131
ATGCGAGC: -0.108
ATAGAGCC: -0.062
AACTTTTA: 0.0767
TATCGTGA: -0.0964
CTAACAGC: 0.0409
GGATCATA: -0.0212
CTACATAC: -0.184
GCACTGCC: 0.142
CGTCTTAA: -0.0161
CCGTTCAG: 0.0324
ATTTGTGA: -0.0221
ACACGCAC: -0.0368
CGCGTCCG: 0.0377
CAGGATGG: 0.0247

Series 4
Target: RING finger protein unkempt homolog, zinc fingers 1-6, GST-SBP tag (UNK, Homo sapiens, UniProt Q9C0B0, residues 30-357)
Technique: RNA Bind-n-Seq
Form: RNA
Medium: in vitro
Tested at: not given
Setting: RNA with constant flanks, human and mouse sites, ends assumed
Baseline: input RNA pool
Direction: higher = stronger binding
Quantity: bound/input enrichment
Constant ends, left off below: GGGAGUUCUACAGUCCGACGAUC … CAACAGAGGAUUGAGCAUCA
Target sequence (chain): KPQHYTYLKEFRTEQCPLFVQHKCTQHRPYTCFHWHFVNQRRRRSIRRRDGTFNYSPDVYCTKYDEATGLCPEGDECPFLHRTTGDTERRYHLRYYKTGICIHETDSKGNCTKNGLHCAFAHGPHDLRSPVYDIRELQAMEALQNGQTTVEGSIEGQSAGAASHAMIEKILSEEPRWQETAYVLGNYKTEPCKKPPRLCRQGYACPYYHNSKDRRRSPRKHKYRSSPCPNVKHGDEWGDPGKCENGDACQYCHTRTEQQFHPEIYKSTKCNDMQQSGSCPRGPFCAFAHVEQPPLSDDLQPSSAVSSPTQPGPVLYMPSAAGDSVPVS
AAUCAUGCUUCUACAAGGUGAAGUGUGUUUGGGGAAACUGAGCUCUAACAAAAGCCGCGACAGCCACCAGGCAGGCUUUUCCUUAUACAUGACAGAAGUUCGUAUUACGCCUUGGAAGGU: 0.161 ratio
GAUCUCAUGGAAGAGUAUCACACGUGGCAGAGCUUUGGGAACUCUCACAGGUUUUCCUUCUGUCAGUACCCAUUCGUUAUUUCUAUAGCUGCAAAAAAAAUCAUUAUUCAAAGAGACUCA: 0.728 ratio
AUGUCAAUGUCAUCAUCGCCUCCCACCUGCUGCUCUGCUCUGUGCCUGGAGACUGAGCAUUUAUUUACCACAGACGCCACACGAAGCUUUUCACUCCAGCGUGGUUGGCAAUGCAGAUUC: 0.0782 ratio
AUGGUUCUUAAAGAUGUGGGAUUGAAAAAAGAAGAUAUUGCAAUGUGGGAAGUAAAUGAAGCCUUUAGUCUGGUUGUACUAGCAAACAUUAAAAUGUUGGAGAUUGAUCCCCAAAAAGUG: 0.534 ratio
CUCAAUGUUACACCACUGGCAAGAAUAGUAGCAUUUGCUGACGCUGCUGUAGAACCUAUUGAUUUUCCAAUUGCUCCUGUAUAUGCUGCAUCUAUGGUUCUUAAAGAUGUGGGAUUGAAA: 0.171 ratio
UACCAGGGAAUCUGGAAACCCAGGAAAAUACCAAAUCCAGAUUUCUUUGAAGAUCUGGAACCUUUCAGAAUGACUCCUUUUAGUGCUAUUGGUUUGGAGCUGUGGUCCAUGACCUCUGAC: 0.871 ratio
GAAAAAGGUUGAUCUCACACACCUGGAGGGUGAAGUGGAAAAAAGAAAGCACGCUAUCGAAGAGGCAAAGGCCCAAGCCCGGGGCCUGUUGCCUGGGGGCACACAGGUGCUGGAUGGUAC: 0.34 ratio
UGGAUGAAGCUCCUGCCGACCCUCACCUGACAAUCUGAGUUCUGUUCUUGGGACCCACGCGUGGAAGCAGGGAACAAACUCCUGCAAGUUGUCUUCUGAUCUUCACUUGUGUGCUGUGUC: 0.102 ratio
UUCUUUUCUAAAACCUUGUUUAACUGCCUUGUUUAUGGACCAGAAAAUACCCAGCCAAUUUUAGAUGAUGUUUCAGACUUUGAUGUGGCACAGAUUAUAAUCAGGAUAAAUACUGCAACA: 1.21 ratio
CCAGAAUGAUUCUGGGCAUAUACUAAGAAGAGCAGGUAUGGAAAGAUCUAUUGUCAGGGAAUCUUAGAAUUCCCUACACGAGUGGGAGAAAGAUGUCCAAAUUCCUUACGCAGUGGUAUU: 0.261 ratio
CUGCUGGAGGAUUCCAGUGCUGGGGAAGACAGUGUUCAUGACAGGUUUAUAGGUCCGCUUCCAAGAGAAGGUUCUGGGGGUUCUACCAGUGAUUAUGUCAGCCAAAGCUACUCCUACUCA: 0.115 ratio

Excerpt of the above (series 1):
GGUUACUCUUAGAAUCGCAUGCUGUAGAAAUGCUCUAAAGUGCAUAUAGGACUCAGUCCUUAGAUGUUCUUUUUAUUUUAAGAAAUAACCUCUUCAAGUUGUAACCGUGG: 1.29
GCCCCUCAUUGUUACUGCCUUGUGAGAUAAAAACUGAUUAAACCUUUGUGGCUGUGGUUGGCUGACAUGGGGUCUGUGUUUCACUAACUAACUAACUAACUGCAGGUGGU: 0.737
UUGGAAUUUACCAGUUAAUUACUCAGCAGAAUGGUGAUCACUCCAGGUAGUUUGGGGCAAAAAUCCGAGGUGCUUGGGAGUUUUGAAUGUUAAGAAUUGACCAUCUGCUU: 0.987
CAAGCUGAGCUGCUAGGGAAUCAAGGUGAACUAGACCCGUCCUCAGGCCUCUGGCACCUGUUUCUAGCUCUCACUUCUACGGCAUGCUGUCCAAGGAACCAAAGGAGGCU: 0.439
GGUGCUCACAAUUGUCUCUCACAGUGUAUGUGAUUUUUUUAAGGAAAAAAAAAAAUCCCUAUUUAAGAUUCUGAAGGUGCUACCAUUAUUUUGCCACAGACUUUGAAGAA: 0.646
CUUUUGAACAAUUUUAAUUUUUUGCCUCAUAAAUUUUGUGAAUGCUAUUCAUUAUAGGGCUUGUAUAUAUAAUCUAAAAUGUCAGCAAGGCAUCGGAGAUGGGUUAACAU: 1.31
CCUGUGGCCCUAUGGUGUGAUGCUGUGUCUGUAUCUAUGUGUCUAUACAAAGGUACUUGCCCUUUCCCUUUGUAAACUACAUUUGACAUGGAUUAAAACAGUAUAAACAA: 0.466
GGCUCUGGGCUGGGACAUGGCUUAGAGUGACUUUCUGUCUUAGAAAUCAUGGUAUAUCCUCAGGAGAAUGUUCCGUGUCUCGCAACAACUAAUUAUAUUGCAAAUUAUUA: 0.568
